Measurements pooled from the literature.
Compare with care: the assays were run in different laboratories. Numbers after ± are the reported error.

CC1(C)CC[C@]2(NC(=O)C(C)(F)F)CC[C@]3(C)[C@H](C(=O)C=C4[C@@]5(C)C=C(C#N)C(=O)C(C)(C)[C@@H]5CC[C@]43C)[C@@H]2C1  trough plasma concentration (human, plasma; oral, 150 mg, day 23 predose, geometric mean): 35 ng/mL
CCN1CCN(Cc2ccc(Nc3ncc(F)c(-c4cc(F)c5nc(C)n(C(C)C)c5c4)n3)nc2)CC1  Km (human, plasma; oral, absorption model estimate): 53.6 µM
COc1cc2c3c(n(CCCN4CCOCC4)c(=O)c2cc1OC)-c1cc2c(cc1C3=O)OCO2  Vz (beagle dog, female, plasma; intravenous infusion, 100 mg/m^2, 1 h infusion, vehicle 1): 748 ± 240 L/m²
NC1(C(=O)N[C@@H](CCO)c2ccc(Cl)cc2)CCN(c2nc[nH]c3nccc2-3)CC1  incidence of Erythema (metastatic CRPC patients; 400 mg b.i.d., any grade, treatment-related, with: enzalutamide 160 mg daily): 0%
COc1ccc2c(=O)n(C)c(-c3ccccc3)nc2c1  tissue/plasma ratio (Sprague-Dawley rat, male, heart; oral, 30 mg/kg, 0.5 h; reference: heart over plasma): 0.66
CC[C@H](C)[C@H](NC(C)=O)C(=O)N[C@H]1CSSC[C@@H](C(=O)N[C@H](C(N)=O)[C@@H](C)O)NC(=O)[C@H](CCCNC(=N)N)NC(=O)[C@H](Cc2c[nH]cn2)NC(=O)[C@](C)(CC)NC(=O)CNC(=O)[C@H](Cc2c[nH]c3ccccc23)NC(=O)[C@H](CC(=O)O)NC(=O)[C@H](CCC(N)=O)NC(=O)[C@H](Cc2c[nH]c3ccccc23)NC(=O)[C@H](C(C)C)NC1=O  retention factor (RP-HPLC, C18; 28% acetonitrile isocratic; pH 7.4): 3.533 ± 0.007
O=C(O)CNC(=O)c1ccco1  inhibition (THP-1; pyroptotic LDH release; 2 µM, 40 min, with: LPS then nigericin): -12.4%
O=C(Nc1nc2cccc(-c3ccc(CN4CCS(=O)(=O)CC4)cc3)n2n1)C1CC1  treatment-emergent adverse events (measured: immune system disorders; human rheumatoid arthritis patients; oral, 30 mg once daily, 4 weeks, regardless of relatedness): 5.9%
C=CC(=O)N(C)CCOc1c(N)ncnc1-c1cc(F)cc(NC(=O)c2ccc(C3CC3)cc2F)c1C  AUC(0-inf) per dose (human; oral, 50 mg, day 3, median, given alone): 4.79 ng·h/mL/mg
CC(C)(C(=O)N1CCOc2c(C#N)cncc2C1)C(F)F  subjects with adverse event (measured: back pain; human; oral, 40 mg, CSF pharmacokinetic cohort): 33.3%
COc1cc(C(=O)NC2CCN(C)CC2)c(F)cc1Nc1ncc(C(F)(F)F)c(Oc2cccc3c2C(=O)N(C)C3)n1  dose-normalised Cmax (human patients, plasma; oral, 50 mg single dose, geometric mean): 6.24 nmol/L per mg
Cn1cc(Nc2nccc(-c3ccc4c(c3)CN(C3COC3)CC[C@H]4NC(=O)c3cn(C(C)(C)C)nn3)n2)cn1  lymphocyte count change (human, whole blood; 150 mg twice daily, day 7; reference: pre-dose baseline): 2.12%
c1cc(CN2CCOCC2)cc(Nc2ncc(C3CC3)c(NCCc3c[nH]cn3)n2)c1  effective permeability (PAMPA; PBS; 5 h, pH 7.4): 0.561 ×10⁻⁶ cm/s
N#CCNC(=O)c1ccc(-c2ccnc(Nc3ccc(N4CCOCC4=O)cc3)n2)cc1  Cmax increase (healthy volunteers, plasma; dose not given, with: rifampin multiple-dose; reference: with single-dose rifampin): 31%
C=C1C(=O)O[C@@]23[C@H]1CC[C@@H](C)[C@@H]2CC[C@@]1(C)O[C@@H]31  inhibition (THP-1; pyroptotic LDH release; 2 µM, 40 min, with: LPS then nigericin): -13.3%
CN(CCCNC(=O)c1cc(NC(=O)c2cc(NC(=O)c3cc(NC(=O)c4nc(NC(=O)C[C@@H](N)CNC(=O)c5cc(NC(=O)c6cc(NC(=O)c7cc(NC(=O)c8nccn8C)cn7C)cn6C)cn5C)cn4C)cn3C)cn2C)cn1C)CCCNC(=S)Nc1ccc(-c2c3ccc(=O)cc-3oc3cc(O)ccc23)c(C(=O)O)c1  critical aggregation concentration (dynamic light scattering; 0.1% DMSO in PBS; 25 °C): 1 µM
CCN1CCN(Cc2ccc(Nc3ncc(F)c(-c4cc(F)c5nc6n(c5c4)[C@H](C)CCC6)n3)nc2)CC1  CL/F (human, plasma; 400 mg multiple dosing, mean): 52.7 L/h

Repeated from above:
O=C(Nc1nc2cccc(-c3ccc(CN4CCS(=O)(=O)CC4)cc3)n2n1)C1CC1  treatment-emergent adverse events (measured: immune system disorders; human rheumatoid arthritis patients; oral, 30 mg once daily, 4 weeks, regardless of relatedness): 5.9%
C=CC(=O)N(C)CCOc1c(N)ncnc1-c1cc(F)cc(NC(=O)c2ccc(C3CC3)cc2F)c1C  AUC(0-inf) per dose (human; oral, 50 mg, day 3, median, given alone): 4.79 ng·h/mL/mg
